Measured values from different studies.
± marks the error that the study gave.
Cell line: RAW264.7

Compound | test | setting | how to read | quantity | result
COc1ccc(/C=N\NC(=O)[C@]2(C)C3CC[C@]4(C)C(C(=O)C=C5C6[C@@H](C)[C@H](C)CC[C@]6(C)CC[C@]54C)[C@@]3(C)CC[C@H]2OC(C)=O)cc1 (stereo partly drawn) | NO release, inhibitor, Griess | 10 µM, 24 h, LPS-stimulated | – | inhibition | 80.7%
C[C@H]1[C@H](C)CC[C@]2(C(=O)O)CC[C@]3(C)C(=CC[C@@H]4[C@@]5(C)CC[C@H](O[C@@H]6O[C@@H](C)[C@H](O[C@@H]7O[C@@H](C)[C@H](O)[C@@H](O)[C@H]7O)[C@@H](O)[C@H]6O)C(C)(C)[C@@H]5CC[C@]43C)[C@H]12 | LPS-induced NO production, inhibitor, Griess reaction | 24 h, added: 100 ng/mL LPS | – | EC50 | 16 ± 3 µM
Cc1ccc(NCc2cn(-c3ccc(S(N)(=O)=O)cc3)nc2-c2ccc(OCc3ccccc3)cc2)cc1 | TNF-α release, inhibitor, ELISA | 20 µM, LPS-stimulated | – | inhibition | 71.5%
CC(=O)O[C@@H]1CC[C@@]2(C)C(CC[C@]3(C)C2C(=O)C=C2C4[C@@H](C)[C@H](C)CC[C@]4(C)CC[C@]23C)[C@@]1(C)C(=O)N/N=C\C=Cc1ccccc1 (stereo partly drawn) | NO release, inhibitor, Griess | 10 µM, 24 h, LPS-stimulated | – | inhibition | 84.3%
CCOC(=O)c1nc2cc(Cl)c(Cl)cc2nc1N1CCN(C(=O)Nc2ccc(N3CCNCC3)cc2)CC1 | – | 5 µM, added: LPS | – | glucose consumption | decreased
CCOC(=O)c1csc2nc(-c3cccc(NC(=O)c4cc5cc(NC(=O)C(C)Cl)ccc5n4Cc4ccc(C(F)(F)F)cc4)c3)cn12 (stereo not drawn) | – | 10 µM, added: LPS | relative to: control | intracellular MDA level | increased
C/C=C(/NC(=O)CCCCCCC)C(=O)N/C(=C/C)C(=O)N[C@H](CC(C)C)C(=O)N[C@@H](CC(C)C)C(=O)Nc1ccc(C(=O)N[C@H](C(=O)O)[C@@H](C)O)cc1 | NO release, inhibitor, Griess | 10 µM, 24 h, LPS-stimulated | – | inhibition | 44.6%
COC(=O)C1OC(Oc2c(-c3ccccc3)oc3cc(O)c(O)c(O)c3c2=O)C(O)C(O)C1O (stereo not drawn) | ELISA | 10 µM, added: LPS | – | IL-1β level | 189 pg/mL
CC(=O)O[C@@H]1CC[C@@]2(C)C(CC[C@]3(C)C2C(=O)C=C2C4[C@@H](C)[C@H](C)CC[C@]4(C)CC[C@]23C)[C@@]1(C)C(=O)OCc1cn(CC(=O)Oc2cc(C)ccc2C(C)C)nn1 (stereo partly drawn) | NO release, inhibitor, Griess | 10 µM, 24 h, LPS-stimulated | – | inhibition | 85.7%
COc1cccc(/C=C/C(=O)c2ccc(C)o2)c1OC | IL-6 release, inhibitor, ELISA | 10 µM, LPS-stimulated | – | inhibition | 73 to 89%
CCOP(=O)(OCC)OCCCCOC(=O)C(C)c1ccc(CC(C)C)cc1 (stereo not drawn) | western blot | 130 µM, 12 h, added: LPS 100 ng/mL | – | COX-2 protein level | inhibited
CC[C@H](C)[C@H](NC(=O)[C@H](CCCCN)NC(=O)[C@H](CC(N)=O)NC(=O)CNC(=O)[C@@H](NC(=O)[C@H](C)NC(=O)[C@H](CCCNC(=N)N)NC(=O)[C@H](CC(C)C)NC(=O)[C@H](CCCCN)NC(=O)[C@H](CCCCN)NC(=O)[C@H](CCCCN)NC(=O)[C@H](C)NC(=O)[C@H](CCCCN)NC(=O)[C@@H]1CSSC[C@H](NC(=O)[C@H](CCCNC(=N)N)NC(=O)CN)C(=O)N[C@@H](CC(N)=O)C(=O)N[C@@H](CC(C)C)C(=O)N[C@@H](CC(C)C)C(=O)N1)C(C)C)C(=O)N[C@@H](CCCCN)C(=O)N[C@@H](CCC(=O)O)C(=O)N[C@H](C(=O)N[C@@H](CCCCN)C(=O)N[C@@H](CC(N)=O)C(=O)N[C@H](C(=O)N[C@H](C(=O)N[C@@H](Cc1ccccc1)C(=O)N[C@@H](CC(N)=O)C(=O)N[C@@H](CCCNC(=N)N)C(=O)O)C(C)C)C(C)C)[C@@H](C)CC | – | 20 µM, 24 h, added: LPS 2 h before, washed | – | IL-6 reduction | 48.9%
CC(=O)O[C@@H]1CC[C@@]2(C)C(CC[C@]3(C)C2C(=O)C=C2C4[C@@H](C)[C@H](C)CC[C@]4(C)CC[C@]23C)[C@@]1(C)c1nnc(SCC(=O)OC2CC(C)CCC2C(C)C)o1 (stereo partly drawn) | NO release, inhibitor, Griess | 10 µM, 24 h, LPS-stimulated | – | inhibition | 74.4%
CCc1c(-c2ccc(O)cc2)nn(-c2ccc(O)cc2)c1-c1ccc(OCCN2CCCCC2)cc1 | cytotoxicity, Alamar blue | – | – | EC50 | 11.6 ± 0.9 µM
Cc1ccc(CN2C(=O)/C(=N\c3ccc(Cl)cc3Br)c3ccccc32)cc1 | – | 1.5 µM, added: LPS | – | CD86-positive cells | 88.9%
CC(=O)O[C@@H]1CC[C@@]2(C)C(CC[C@]3(C)C2C(=O)C=C2C4[C@@H](C)[C@H](C)CC[C@]4(C)CC[C@]23C)[C@@]1(C)C(=O)OCC(=O)Oc1cc(C)ccc1C(C)C (stereo partly drawn) | NO release, inhibitor, Griess | 10 µM, 24 h, LPS-stimulated | – | inhibition | 89.7%
C=CC(=O)Nc1ccc2c(c1)cc(C(=O)Nc1cccc(-c3cn4c(C(=O)OCC)csc4n3)c1)n2Cc1ccc(C(F)(F)F)cc1 | TNF-α release, inhibitor, ELISA | 24 h, LPS-stimulated | – | IC50 | 62.8 µM
CC(=O)O[C@@H]1CC[C@@]2(C)C(CC[C@]3(C)C2C(=O)C=C2C4[C@@H](C)[C@H](C)CC[C@]4(C)CC[C@]23C)[C@@]1(C)C(=O)N/N=C1/C(=O)Nc2ccccc21 (stereo partly drawn) | NO release, inhibitor, Griess | 10 µM, 24 h, LPS-stimulated | – | inhibition | 91%
CCOC(=O)c1csc2nc(-c3cccc(NC(=O)c4cc5cc(NC(=O)c6ccco6)ccc5n4Cc4ccc(C(F)(F)F)cc4)c3)cn12 | – | 10 µM, added: LPS | relative to: control | intracellular ROS level | increased
CC(=O)O[C@@H]1CC[C@@]2(C)C(CC[C@]3(C)C2C(=O)C=C2C4[C@@H](C)[C@H](C)CC[C@]4(C)CC[C@]23C)[C@@]1(C)C(=O)N/N=C\c1ccc2c(c1)OCO2 (stereo partly drawn) | NO release, inhibitor, Griess | 10 µM, 24 h, LPS-stimulated | – | inhibition | 70.9%
C[C@H]1[C@H](C)CC[C@]2(C(=O)O)CC[C@]3(C)C(=CC[C@@H]4[C@@]5(C)CC[C@H](O[C@@H]6O[C@@H](C)[C@H](O[C@@H]7O[C@@H](C)[C@H](O)[C@@H](O)[C@H]7O)[C@@H](O[C@@H]7O[C@@H](C)[C@H](O)[C@@H](O)[C@H]7O)[C@H]6O[C@@H]6O[C@@H](C)[C@H](O)[C@@H](O)[C@H]6O)C(C)(C)[C@@H]5CC[C@]43C)[C@H]12 | LPS-induced NO production, inhibitor, Griess reaction | 24 h, added: 100 ng/mL LPS | – | EC50 | 11 ± 2 µM

Some of these lines once more:
Compound | test | setting | how to read | quantity | result
COC(=O)C1OC(Oc2c(-c3ccccc3)oc3cc(O)c(O)c(O)c3c2=O)C(O)C(O)C1O (stereo not drawn) | ELISA | 10 µM, added: LPS | – | IL-1β level | 189 pg/mL
CC(=O)O[C@@H]1CC[C@@]2(C)C(CC[C@]3(C)C2C(=O)C=C2C4[C@@H](C)[C@H](C)CC[C@]4(C)CC[C@]23C)[C@@]1(C)C(=O)OCc1cn(CC(=O)Oc2cc(C)ccc2C(C)C)nn1 (stereo partly drawn) | NO release, inhibitor, Griess | 10 µM, 24 h, LPS-stimulated | – | inhibition | 85.7%
COc1cccc(/C=C/C(=O)c2ccc(C)o2)c1OC | IL-6 release, inhibitor, ELISA | 10 µM, LPS-stimulated | – | inhibition | 73 to 89%
